Results gathered from unrelated publications.
Each line is one published result; not all experiments were run side by side. ± gives the spread as reported.
gag-pol reverse transcriptase: Gag-Pol polyprotein, reverse transcriptase (gag-pol, Human immunodeficiency virus 1, UniProt P03366)

By UniProt entry, the sequences of proteins in these tests, tags left out. Chains listed by the source or under a name are the forms on record and can include a tag or linker. Residues count along the entry.
UniProt P37136, 32-574 limits assumed: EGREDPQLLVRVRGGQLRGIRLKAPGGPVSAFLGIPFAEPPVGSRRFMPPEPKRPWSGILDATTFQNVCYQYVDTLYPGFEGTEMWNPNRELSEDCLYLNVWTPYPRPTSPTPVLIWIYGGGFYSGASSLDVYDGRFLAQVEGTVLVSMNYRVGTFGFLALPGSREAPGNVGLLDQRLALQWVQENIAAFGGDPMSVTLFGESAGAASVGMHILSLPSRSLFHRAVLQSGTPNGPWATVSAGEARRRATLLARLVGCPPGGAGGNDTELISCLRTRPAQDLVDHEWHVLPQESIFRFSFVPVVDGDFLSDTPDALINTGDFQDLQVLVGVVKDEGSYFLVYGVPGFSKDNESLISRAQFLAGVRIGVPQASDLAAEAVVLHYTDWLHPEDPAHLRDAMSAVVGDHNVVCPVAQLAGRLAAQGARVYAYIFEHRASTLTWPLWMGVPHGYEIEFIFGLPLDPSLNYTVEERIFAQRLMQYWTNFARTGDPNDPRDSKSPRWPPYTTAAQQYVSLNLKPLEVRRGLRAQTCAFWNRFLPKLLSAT
UniProt P53041, whole entry: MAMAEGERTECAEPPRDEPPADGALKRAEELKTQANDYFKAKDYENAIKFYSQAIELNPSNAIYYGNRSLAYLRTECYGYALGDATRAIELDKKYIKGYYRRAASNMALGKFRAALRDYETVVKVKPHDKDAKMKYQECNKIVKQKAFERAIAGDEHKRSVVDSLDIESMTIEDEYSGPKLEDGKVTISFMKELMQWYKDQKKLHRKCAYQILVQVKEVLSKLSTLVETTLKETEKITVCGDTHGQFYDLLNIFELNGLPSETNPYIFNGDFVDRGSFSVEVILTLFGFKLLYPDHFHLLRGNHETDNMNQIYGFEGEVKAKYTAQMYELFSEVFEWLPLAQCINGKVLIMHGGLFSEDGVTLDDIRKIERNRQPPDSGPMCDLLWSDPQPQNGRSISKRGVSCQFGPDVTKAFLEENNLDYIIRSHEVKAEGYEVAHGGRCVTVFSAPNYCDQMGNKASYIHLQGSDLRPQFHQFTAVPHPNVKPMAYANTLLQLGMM
UniProt Q9Y2R2, whole entry, looked up: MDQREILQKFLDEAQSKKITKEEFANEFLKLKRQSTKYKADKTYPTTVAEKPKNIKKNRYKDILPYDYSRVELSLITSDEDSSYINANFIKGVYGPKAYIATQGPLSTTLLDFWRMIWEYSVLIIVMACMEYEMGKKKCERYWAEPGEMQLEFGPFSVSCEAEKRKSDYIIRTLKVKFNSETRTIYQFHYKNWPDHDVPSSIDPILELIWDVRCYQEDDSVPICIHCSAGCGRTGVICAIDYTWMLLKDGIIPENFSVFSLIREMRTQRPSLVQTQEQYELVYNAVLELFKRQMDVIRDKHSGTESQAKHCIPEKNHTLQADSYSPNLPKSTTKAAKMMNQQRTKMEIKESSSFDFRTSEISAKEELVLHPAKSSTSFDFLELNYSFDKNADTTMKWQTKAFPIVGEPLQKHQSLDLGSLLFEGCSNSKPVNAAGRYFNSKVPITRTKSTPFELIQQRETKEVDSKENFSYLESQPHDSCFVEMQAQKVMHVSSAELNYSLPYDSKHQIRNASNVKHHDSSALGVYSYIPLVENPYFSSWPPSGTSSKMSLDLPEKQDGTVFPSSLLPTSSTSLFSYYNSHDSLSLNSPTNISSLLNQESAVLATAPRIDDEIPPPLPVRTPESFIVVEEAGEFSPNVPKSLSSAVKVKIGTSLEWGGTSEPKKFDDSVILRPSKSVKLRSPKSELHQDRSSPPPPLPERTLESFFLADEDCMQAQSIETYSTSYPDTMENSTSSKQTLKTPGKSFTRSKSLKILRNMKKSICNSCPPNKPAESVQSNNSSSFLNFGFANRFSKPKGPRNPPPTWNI
UniProt P30561, 10-848 limits assumed: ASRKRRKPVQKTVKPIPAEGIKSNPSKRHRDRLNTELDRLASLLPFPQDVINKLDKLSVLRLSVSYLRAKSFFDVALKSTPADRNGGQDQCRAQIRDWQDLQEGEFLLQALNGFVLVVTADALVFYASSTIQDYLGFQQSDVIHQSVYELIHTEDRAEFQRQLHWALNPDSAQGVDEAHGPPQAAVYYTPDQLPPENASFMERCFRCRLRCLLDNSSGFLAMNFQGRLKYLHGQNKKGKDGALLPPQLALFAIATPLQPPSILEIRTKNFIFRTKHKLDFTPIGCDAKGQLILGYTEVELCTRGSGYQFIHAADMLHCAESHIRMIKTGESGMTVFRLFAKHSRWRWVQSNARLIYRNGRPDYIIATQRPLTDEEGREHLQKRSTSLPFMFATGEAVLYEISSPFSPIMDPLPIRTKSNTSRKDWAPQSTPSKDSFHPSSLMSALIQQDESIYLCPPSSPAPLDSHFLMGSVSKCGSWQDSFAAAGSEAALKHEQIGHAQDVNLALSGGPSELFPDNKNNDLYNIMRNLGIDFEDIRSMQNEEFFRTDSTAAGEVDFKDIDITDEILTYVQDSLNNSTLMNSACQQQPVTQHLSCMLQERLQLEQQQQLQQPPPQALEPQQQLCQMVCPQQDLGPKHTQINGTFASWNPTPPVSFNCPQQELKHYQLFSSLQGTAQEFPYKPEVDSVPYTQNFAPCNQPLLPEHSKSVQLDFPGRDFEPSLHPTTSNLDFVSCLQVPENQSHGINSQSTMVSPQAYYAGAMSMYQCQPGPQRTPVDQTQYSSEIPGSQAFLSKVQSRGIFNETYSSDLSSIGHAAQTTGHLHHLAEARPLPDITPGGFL
UniProt P14340, 281-571 limits assumed: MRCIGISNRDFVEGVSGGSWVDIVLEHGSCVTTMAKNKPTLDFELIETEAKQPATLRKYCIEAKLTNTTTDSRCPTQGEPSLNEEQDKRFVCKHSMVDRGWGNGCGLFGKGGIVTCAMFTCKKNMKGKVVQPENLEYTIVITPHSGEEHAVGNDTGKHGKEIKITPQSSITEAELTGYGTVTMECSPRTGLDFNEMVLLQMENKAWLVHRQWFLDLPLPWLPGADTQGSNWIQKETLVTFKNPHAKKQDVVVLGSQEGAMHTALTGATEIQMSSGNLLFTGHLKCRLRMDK
UniProt P05556, 21-798 limits assumed: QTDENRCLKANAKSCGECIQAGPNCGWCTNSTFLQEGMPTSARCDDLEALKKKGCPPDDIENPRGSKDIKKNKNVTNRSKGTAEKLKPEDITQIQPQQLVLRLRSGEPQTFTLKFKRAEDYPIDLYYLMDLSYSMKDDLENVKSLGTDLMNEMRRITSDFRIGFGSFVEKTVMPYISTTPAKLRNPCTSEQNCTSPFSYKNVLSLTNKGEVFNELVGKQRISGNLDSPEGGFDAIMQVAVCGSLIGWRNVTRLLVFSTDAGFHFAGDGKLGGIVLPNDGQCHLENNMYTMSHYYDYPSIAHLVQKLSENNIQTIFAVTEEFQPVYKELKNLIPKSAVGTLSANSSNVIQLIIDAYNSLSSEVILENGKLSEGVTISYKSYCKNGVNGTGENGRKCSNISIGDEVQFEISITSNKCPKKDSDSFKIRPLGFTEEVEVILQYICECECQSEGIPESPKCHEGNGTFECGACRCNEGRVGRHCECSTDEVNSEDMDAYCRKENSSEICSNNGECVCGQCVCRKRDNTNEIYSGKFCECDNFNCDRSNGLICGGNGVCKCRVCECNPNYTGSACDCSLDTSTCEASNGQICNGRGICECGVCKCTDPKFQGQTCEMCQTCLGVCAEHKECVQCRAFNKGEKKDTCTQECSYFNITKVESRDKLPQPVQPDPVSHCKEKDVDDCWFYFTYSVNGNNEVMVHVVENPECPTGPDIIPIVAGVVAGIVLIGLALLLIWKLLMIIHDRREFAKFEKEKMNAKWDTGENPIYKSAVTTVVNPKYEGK
UniProt P17301, 30-1181 limits assumed: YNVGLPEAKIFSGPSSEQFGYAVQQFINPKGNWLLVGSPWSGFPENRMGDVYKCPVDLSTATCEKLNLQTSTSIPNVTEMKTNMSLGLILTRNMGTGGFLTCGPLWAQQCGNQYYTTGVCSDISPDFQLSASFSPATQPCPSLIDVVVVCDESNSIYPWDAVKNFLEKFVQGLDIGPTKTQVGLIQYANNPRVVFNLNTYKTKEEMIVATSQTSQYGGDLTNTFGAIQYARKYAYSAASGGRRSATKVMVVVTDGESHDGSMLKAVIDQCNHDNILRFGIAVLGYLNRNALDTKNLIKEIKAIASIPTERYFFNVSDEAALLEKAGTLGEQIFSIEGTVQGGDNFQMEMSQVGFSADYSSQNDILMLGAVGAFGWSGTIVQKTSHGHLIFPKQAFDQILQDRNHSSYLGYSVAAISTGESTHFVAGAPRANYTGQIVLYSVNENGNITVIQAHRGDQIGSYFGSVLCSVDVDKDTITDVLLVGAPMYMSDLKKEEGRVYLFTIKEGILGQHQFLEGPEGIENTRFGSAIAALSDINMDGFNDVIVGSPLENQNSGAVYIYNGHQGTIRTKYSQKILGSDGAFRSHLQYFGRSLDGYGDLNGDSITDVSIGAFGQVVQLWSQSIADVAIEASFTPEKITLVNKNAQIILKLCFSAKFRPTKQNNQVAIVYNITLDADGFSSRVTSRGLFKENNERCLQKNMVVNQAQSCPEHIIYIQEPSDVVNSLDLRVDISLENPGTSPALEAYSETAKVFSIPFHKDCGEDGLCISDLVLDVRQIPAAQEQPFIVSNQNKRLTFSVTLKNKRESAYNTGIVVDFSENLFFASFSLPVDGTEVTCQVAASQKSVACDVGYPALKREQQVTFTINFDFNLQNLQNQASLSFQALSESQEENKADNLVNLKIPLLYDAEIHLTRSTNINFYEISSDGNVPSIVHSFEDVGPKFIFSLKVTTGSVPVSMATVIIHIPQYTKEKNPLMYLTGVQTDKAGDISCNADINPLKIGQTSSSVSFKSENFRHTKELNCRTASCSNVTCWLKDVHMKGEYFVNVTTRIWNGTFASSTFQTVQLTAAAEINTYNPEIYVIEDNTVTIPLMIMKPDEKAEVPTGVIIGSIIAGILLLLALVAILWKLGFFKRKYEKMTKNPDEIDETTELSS
UniProt P07237, 18-508 limits assumed: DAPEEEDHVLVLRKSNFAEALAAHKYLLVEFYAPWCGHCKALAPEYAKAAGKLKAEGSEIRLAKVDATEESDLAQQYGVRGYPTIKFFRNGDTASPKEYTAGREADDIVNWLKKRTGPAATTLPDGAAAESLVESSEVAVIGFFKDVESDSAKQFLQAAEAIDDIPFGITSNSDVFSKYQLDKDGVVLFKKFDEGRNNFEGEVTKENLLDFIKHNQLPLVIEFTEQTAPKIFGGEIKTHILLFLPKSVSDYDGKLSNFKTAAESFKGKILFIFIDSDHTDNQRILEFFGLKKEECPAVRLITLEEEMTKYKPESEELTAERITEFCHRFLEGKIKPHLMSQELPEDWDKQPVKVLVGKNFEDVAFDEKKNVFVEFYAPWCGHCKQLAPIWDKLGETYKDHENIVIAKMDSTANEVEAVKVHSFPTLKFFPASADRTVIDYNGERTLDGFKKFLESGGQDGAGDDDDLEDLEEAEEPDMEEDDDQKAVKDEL
UniProt P10636, with tags, fused parts or gaps DEL597-597 limits assumed: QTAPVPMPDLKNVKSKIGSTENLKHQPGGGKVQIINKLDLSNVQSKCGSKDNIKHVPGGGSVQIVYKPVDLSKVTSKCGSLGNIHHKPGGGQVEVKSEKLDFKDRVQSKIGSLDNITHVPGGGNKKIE
UniProt P17787, 26-502 limits assumed: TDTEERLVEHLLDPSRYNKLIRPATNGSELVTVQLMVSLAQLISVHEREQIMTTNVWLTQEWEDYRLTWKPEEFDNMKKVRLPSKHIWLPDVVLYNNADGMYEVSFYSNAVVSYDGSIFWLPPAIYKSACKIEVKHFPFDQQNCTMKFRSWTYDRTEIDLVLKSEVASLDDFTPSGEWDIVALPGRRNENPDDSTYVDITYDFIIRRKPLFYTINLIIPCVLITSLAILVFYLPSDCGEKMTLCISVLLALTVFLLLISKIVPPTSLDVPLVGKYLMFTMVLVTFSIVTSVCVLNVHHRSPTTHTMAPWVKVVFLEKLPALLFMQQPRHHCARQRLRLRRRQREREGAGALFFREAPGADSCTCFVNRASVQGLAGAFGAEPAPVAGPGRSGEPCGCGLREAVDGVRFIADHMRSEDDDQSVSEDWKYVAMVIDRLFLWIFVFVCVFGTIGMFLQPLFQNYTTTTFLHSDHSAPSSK
UniProt P32297, 32-505 limits assumed: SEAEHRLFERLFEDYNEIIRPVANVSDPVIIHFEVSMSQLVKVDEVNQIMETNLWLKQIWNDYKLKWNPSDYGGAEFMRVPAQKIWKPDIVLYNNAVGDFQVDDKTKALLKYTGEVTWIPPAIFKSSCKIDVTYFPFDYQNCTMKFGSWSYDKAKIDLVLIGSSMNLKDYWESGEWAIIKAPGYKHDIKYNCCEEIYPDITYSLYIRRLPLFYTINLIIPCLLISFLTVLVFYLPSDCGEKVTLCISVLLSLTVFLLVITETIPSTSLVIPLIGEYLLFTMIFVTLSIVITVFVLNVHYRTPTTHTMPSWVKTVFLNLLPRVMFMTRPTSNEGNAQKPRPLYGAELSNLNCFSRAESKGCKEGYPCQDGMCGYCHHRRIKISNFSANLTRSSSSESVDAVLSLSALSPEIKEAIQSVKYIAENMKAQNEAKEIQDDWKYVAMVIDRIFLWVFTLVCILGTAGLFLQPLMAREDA

For `CCOC(=O)c1c(-c2ccc(Cl)cc2Cl)n(-c2nc(-c3ccc(Cl)cc3)c3c(NC(=O)c4ccccc4)nnc-3[nH]2)[nH]c1=O`, the CC50 was over 100 µM (CCRF-CEM; NCI60 SRB; 5 log dose range).
The IC50 of `N=C(N)c1ccc(C(NC(=O)COCC(=O)NCCCOCCOCCOCCCNC(=O)CCCC[C@@H]2SC[C@@H]3NC(=O)N[C@@H]32)P(=O)(Oc2ccccc2)Oc2ccccc2)cc1` (stereo partly drawn) is reported as 0.097 ± 0.01 µM (Prothrombin (F2, Homo sapiens, UniProt P00734); enzyme activity, inhibitor, fluorogenic substrate; 4 h preincubation, pH 8.0, with: 0.5 nM enzyme).
With `COP(=O)(OC)Oc1ccc([N+](=O)[O-])cc1Cl` the IC50 was 0.1 µM (Ache (Rattus norvegicus, UniProt P37136); enzyme activity, inhibitor, discontinuous Ellman; rat, postnatal day 12, rat lung homogenate; 15 min, 37 °C).
`Cc1cn([C@@H]2CC[C@H](OC(C(=O)O)P(=O)(O)O)C2)c(=O)[nH]c1=O` (relative stereo) gave an IC50 of 0.4 ± 0.05 µM (gag-pol reverse transcriptase; reverse transcriptase activity, inhibitor; with: poly(rA)·oligo(dT) template/primer).
For `CN1CCN(C(c2ccccn2)c2cc(Cl)c3cccnc3c2O)CC1` (stereo not drawn), the IC50 was over 50 µM (Serine/threonine-protein phosphatase 5 (Homo sapiens, UniProt P53041); phosphatase activity, inhibitor; preincubation ~10 min at 23 °C, with: radiolabelled phosphorylase A).
With `CN(C(=S)SSC(=S)N(C)C1CCS(=O)(=O)C1)C1CCS(=O)(=O)C1` (stereo not drawn) the IC50 was 34 ± 3 µM (PTPN22 (Homo sapiens, UniProt Q9Y2R2); phosphatase activity, inhibitor; pH 6.5, enzyme 5 nM, with: DiFMUP 1.5 µM).
With `Cc1cc(I)cc(C)c1Oc1ccnc(Nc2ccc(C#N)cc2)n1` the IC50 was 0.009 ± 0.003 µM (gag-pol reverse transcriptase; dGTP incorporation opposite C (mismatch), inhibitor; 15 min, 37 °C, with: dNTP 5 µM).
`O=[N+]([O-])c1cc(C(F)(F)F)ccc1NCc1ccsc1` has an IC50 of 0.63 µM (Ahr (Mus musculus, UniProt P30561); radioligand binding; in vitro synthesised receptor; with: [3H]TCDD).
`Cc1nc2c(C(=O)N(C)Cc3ccccc3)c[nH]n2c(=O)c1Cc1ccc(Cl)cc1` has an IC50 of over 10 µM (Genome polyprotein, envelope domains I-II (Dengue virus type 2, UniProt P14340)).
With `C[C@@H]1NC(=O)[C@H](CCC(=O)O)NC(=O)CNC(=O)[C@H](CC(=O)O)NC(=O)CNC(=O)[C@H](CCCCN)NC(=O)[C@@H](Cc2ccc(O)cc2)NC1=O` [isotope labelled] the IC50 was 3.72 ± 0.21 µM (Integrin alpha2/beta1 (Homo sapiens, UniProt P05556+P17301); binding, competitive cell binding; A549; 1 h, pH 7.4, room temperature, with: 68Ga-DOTA-A2B1).
`Cc1nn(-c2ccc(Cl)cc2)c2c1C(c1cc(Cl)ccc1Cl)C(C#N)=C(N)O2` (stereo not drawn) gave a viability of 94.1% (Vero E6; 0.4 µM).
With `N#Cc1c(-c2ccc(Cl)cc2Cl)n(-c2nc(-c3ccc(Cl)cc3)c3c(NC(=O)c4ccccc4)nnc-3[nH]2)[nH]c1=O` the CC50 was over 100 µM (SR; SRB).
`O=C(CSc1nccn1C1CCCCC1)Nc1cc(C(F)(F)F)ccc1Cl` has an IC50 of over 10 µM (PFF0160c (Plasmodium falciparum, UniProt Q08210, E182D); enzyme activity, inhibitor, DCIP colorimetric).
For `CCCCC(CCCC)Oc1nc(C(F)(F)F)ccc1CNC(=O)C(C)c1ccc(NS(C)(=O)=O)c(F)c1` (stereo not drawn), the IC50 was 1 to 10 µM (TRPV1 (Homo sapiens, UniProt Q8NER1); ion current, antagonist, FLIPR; CHO cells expressing TRPV1; with: low pH).
`COc1cc(C2C(C#N)=C(N)Oc3c2c(C)nn3-c2ccc(Cl)cc2)ccc1O` (stereo not drawn) has a viability of 68.6% (Vero E6; 6.3 µM).
For `Oc1ccc(Cl)cc1Sc1cc(Cl)ccc1O`, the IC50 was over 100 µM (P4HB (Homo sapiens, UniProt P07237)).
For `CC(C)C[C@@H](NC(=O)[C@@H](CO)NC(=O)[C@@H](Cc1c[nH]cn1)NC(=O)[C@@H](CC(C)C)NC(=O)[C@@H](CCCNC(=N)N)NC(=O)[C@@H](CC(C)C)NC(=O)[C@@H](CC(C)C)NC(=O)[C@H](NC(=O)[C@H]1CCCN1C(=O)[C@@H](C)N)[C@H](C)O)C(=O)NCC(=O)N[C@H](C)C(=O)O`, the IC50 was 5.9 µM (Microtubule-associated protein tau, repeat domain ΔK280 (MAPT, Homo sapiens, UniProt P10636, del597-597); aggregation, inhibitor, thioflavin S fluorescence; 24 h, pH 7.0, 37 °C, with: heparin).
For `CC[C@H](C)[C@@H]1NC(=O)[C@H](CCC(=O)O)NC(=O)[C@@H]2CCCN2C(=O)[C@H](Cc2c[nH]cn2)NC(=O)[C@H](CCCNC(=N)N)NC(=O)[C@H](C(C)C)NC(=O)[C@H](CC(N)=O)NC(=O)[C@@H]2CSSC[C@H](NC(=O)CN)C(=O)N[C@@H](CSSC[C@@H](C(N)=O)NC1=O)C(=O)N[C@@H](CO)C(=O)N[C@@H](Cc1c[nH]cn1)C(=O)N1CCC[C@H]1C(=O)N[C@@H](C(C)C)C(=O)N2`, the IC50 was over 10 µM (Neuronal acetylcholine receptor; alpha3/beta2 (Homo sapiens, UniProt P17787+P32297); ion current, antagonist, two-electrode voltage clamp; Xenopus oocytes; human, with: ACh 100 µM).

Repeated from above:
With `N#Cc1c(-c2ccc(Cl)cc2Cl)n(-c2nc(-c3ccc(Cl)cc3)c3c(NC(=O)c4ccccc4)nnc-3[nH]2)[nH]c1=O` the CC50 was over 100 µM (SR; SRB).
